Assay results from different studies.
Every numbered part comes from another study and shows a few of its results, in no order.

Sample 1 — method: universal PBM; molecule type: double-stranded DNA, one strand shown; matrix: in vitro; concentration: 600 nM; reading: higher = stronger binding
Target: Sal-like protein 4, full length isoform A (SALL4, Homo sapiens, UniProt Q9UJQ4, residues 1-1053)
UniProt Q9UJQ4, sequence (whole entry, looked up): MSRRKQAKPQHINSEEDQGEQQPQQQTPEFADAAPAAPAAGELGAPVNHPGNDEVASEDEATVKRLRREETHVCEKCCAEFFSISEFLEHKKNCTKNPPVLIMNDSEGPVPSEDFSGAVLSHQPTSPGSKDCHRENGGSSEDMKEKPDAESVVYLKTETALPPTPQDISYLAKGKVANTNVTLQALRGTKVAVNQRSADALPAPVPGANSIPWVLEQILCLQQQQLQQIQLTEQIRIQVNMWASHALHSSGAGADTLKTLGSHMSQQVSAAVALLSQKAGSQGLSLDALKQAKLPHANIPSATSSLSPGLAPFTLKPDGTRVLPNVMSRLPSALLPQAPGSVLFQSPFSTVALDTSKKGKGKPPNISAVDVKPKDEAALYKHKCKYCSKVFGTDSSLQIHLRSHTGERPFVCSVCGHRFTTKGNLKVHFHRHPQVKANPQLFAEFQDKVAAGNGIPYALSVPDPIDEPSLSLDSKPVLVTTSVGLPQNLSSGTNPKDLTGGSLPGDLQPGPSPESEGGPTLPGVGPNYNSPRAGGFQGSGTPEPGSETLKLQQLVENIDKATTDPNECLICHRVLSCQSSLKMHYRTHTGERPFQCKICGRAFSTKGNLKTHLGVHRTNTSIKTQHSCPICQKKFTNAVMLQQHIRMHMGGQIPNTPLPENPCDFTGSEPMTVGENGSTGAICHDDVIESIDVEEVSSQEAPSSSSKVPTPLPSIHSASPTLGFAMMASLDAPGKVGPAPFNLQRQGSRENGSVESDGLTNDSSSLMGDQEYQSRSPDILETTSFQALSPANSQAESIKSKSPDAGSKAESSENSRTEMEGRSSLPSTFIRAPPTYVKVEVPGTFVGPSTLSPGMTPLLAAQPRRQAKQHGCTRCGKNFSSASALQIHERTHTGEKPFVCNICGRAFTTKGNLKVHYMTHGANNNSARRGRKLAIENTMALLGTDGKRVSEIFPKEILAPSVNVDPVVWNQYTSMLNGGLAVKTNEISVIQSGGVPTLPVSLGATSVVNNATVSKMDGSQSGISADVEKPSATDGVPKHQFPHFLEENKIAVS
Setting: 8-mer, flanks averaged, mean of replicates
Strand | E-score
CCCACCTC | -0.21
ATCAGGAG | -0.0247
AATAAACG | 0.329
AACCCTGG | -0.167
GTACGAAA | 0.182
CAGGGCAC | -0.237
CTCGTTGC | 0.0211
ACCAGCTA | -0.0497
AATTACAG | 0.269
ATAATGAC | 0.129
CAACCACC | -0.206
ACTCATGC | -0.00422
AAAGACAA | 0.199
AAAATAAT | 0.387
GAGAAAAC | -0.0923
ACAACAGT | 0.0405
TAGCAGCA | -0.0587
CAGGAGCC | -0.356
CAATACAC | 0.259
AGACTGCA | -0.107
CTCAGCTC | -0.265
CATCCTGC | -0.014
ACATACCC | 0.124
AACGCGAC | -0.237
AGTCTAAA | 0.157

Sample 2 — method: protein binding microarray; molecule type: double-stranded DNA, one strand shown; matrix: in vitro; concentration: not given; baseline: not given; reading: higher = stronger binding
Target: Histone acetyltransferase KAT6A, winged helix 1, GST fusion (KAT6A, Homo sapiens, UniProt Q92794, residues 1-85)
Setting: 8-mer, flanks averaged, mean of 2 arrays, mostly near background
Construct (chain): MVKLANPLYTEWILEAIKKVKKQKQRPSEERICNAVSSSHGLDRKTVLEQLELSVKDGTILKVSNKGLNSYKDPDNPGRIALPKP
Strand | E-score
GCGTAGGA | 0.204
GGTCGGGA | 0.0991
GGTAGCAA | -0.23
CCTAGATC | -0.0651
CCGTTGCA | 0.153
CATCAGCA | -0.165
ATGCCAAT | -0.274
GGGAGCGA | -0.126
CGTGATCC | -0.00732
AGTAGGCC | -0.107
ATAGGTTC | 0.0449
CAAATGCG | 0.131
AACGTCAA | -0.0615
GGGCCAAC | 0.0522
AAATGGAT | -0.237
GACCCTAA | -0.161
TCCAGACA | -0.268
CTGAAACC | 0.0815
AGCAAGCA | -0.152
CCTGGCAC | -0.125
CCATCTCG | -0.17

Sample 3 — method: RNA Bind-n-Seq; molecule type: RNA; matrix: in vitro; concentration: not given; baseline: input RNA pool; reading: higher = stronger binding
Target: RING finger protein unkempt homolog, zinc fingers 1-6, GST-SBP tag (UNK, Homo sapiens, UniProt Q9C0B0, residues 30-357)
UniProt Q9C0B0, sequence (30-357, looked up): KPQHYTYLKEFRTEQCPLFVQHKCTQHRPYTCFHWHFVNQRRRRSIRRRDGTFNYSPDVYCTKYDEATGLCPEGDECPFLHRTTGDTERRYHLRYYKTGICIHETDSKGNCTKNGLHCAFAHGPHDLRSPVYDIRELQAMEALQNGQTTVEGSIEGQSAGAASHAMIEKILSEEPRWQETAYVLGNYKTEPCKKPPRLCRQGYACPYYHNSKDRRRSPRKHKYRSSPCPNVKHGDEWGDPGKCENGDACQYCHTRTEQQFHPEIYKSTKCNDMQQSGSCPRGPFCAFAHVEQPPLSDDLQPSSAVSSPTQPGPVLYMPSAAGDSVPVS
Setting: RNA with constant flanks, human and mouse sites, ends assumed
Strand | bound/input enrichment [ratio]
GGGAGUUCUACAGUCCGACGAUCUAACCACAGCAGAGGGCAGAUGCUUGAUAGAUUAUCUUUUCCUUGCUUUCUUGUUUCUGUUUUGAAAGUGAAAUGGGGUUUUAAAUUGUUAUUUAAACUCUUUUUCCAAAUAAAGGUUUACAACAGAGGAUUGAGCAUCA | 0.349
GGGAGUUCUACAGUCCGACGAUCCAUUUAGCGUCUUUUGGGAAAGCCAAACAGUUCAUGAAUUUUCUGGUUGGACUUUUAAAAUUAGGUGAGUUGAUAAACUUCUUGAUUUUCCUACAAAAGGGAAAGUUUGCAACUUUGACACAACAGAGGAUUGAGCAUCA | 1.73
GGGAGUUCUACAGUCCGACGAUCCAGGCCACAGAAAGCGAGGCUGGUGAUAUGGACCUGAGUGGGUUGCCAGAAACAGCAGUGGAUUCCGAAGACGACGACGAUGAAGAAGACAUUGAGAGAGCAUCAGAUCCUCUGAUGAGCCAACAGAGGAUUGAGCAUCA | 0.115
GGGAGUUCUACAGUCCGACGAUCGGGGGCGGGUGGAGGGUAGGAUUUGUGCUGGAUGAGGCCGCUGCUUCCUCGGACCCCAGAACUAGGACUUGGCCACGUUGCAGCCCCCGUUCGGGUAACGUUUUUCUUCACGCCGCAGCCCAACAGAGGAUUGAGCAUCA | 0.522
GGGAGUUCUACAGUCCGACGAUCCUCCAUGAGCUGAAAAUGAAGGGCCCUGAGCCAGUGGUCAGUCAAAUUAUUGACAAACUGAAGCACAUUAACCAGCUCCUGAGAACCAUGUCUAUGCCCAAAGGUAGAGUUCUGGAUAAACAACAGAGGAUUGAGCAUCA | 0.174
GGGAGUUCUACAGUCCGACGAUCAUUCUUGUCAUAGAUCCAAAUAAUGCUGCAGUACUCCAGUCCAGUGGAAAAAAUCUGUUUUACUUGCCACAUGGCUUGAGUAUAGAUAAAGAUGGGAAUUAUUGGGUCACAGACGUGGCUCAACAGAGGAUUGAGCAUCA | 0.237
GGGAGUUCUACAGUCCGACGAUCUUGAAGGACAAGGGCAUUAAAGGAGAGGAAAUAGUUCAGCAGUUAAUUGAAAAUAGUACAACAUUCCGAGACAAGACAGAAUUUGCCCAAGAUAAAUAUAUUAAAAAGAAGAAAAAAAAACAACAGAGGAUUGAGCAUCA | 3.72
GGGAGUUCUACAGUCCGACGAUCGGCGUCCUUUAUCAUAUUUCAAAUCCUAAUGGAGACAAAACAAAAGUGAUGGUCAGUAUUUCUUUGAAAUUCUACAAGGAACUUCAGGCACAUGGAGCUGAUGAGUUGUUAAAGAGAGUGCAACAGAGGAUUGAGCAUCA | 0.595
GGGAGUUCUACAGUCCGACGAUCCAACAUGGAACCCAGCAACAAGACCUUAAUAAGAAAGAAAGAAGAGUAGGAACUCCUCAAAGUACAAAAAAGAAAAAAGAAAGCAGAAGAGCCACUGAAAGCAGAAUACCUGUUUCAAAGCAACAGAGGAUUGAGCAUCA | 0.638
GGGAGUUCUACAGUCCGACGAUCGUCCAAGCACAGUGUGACUGCUGUUUUUUAUACUGGCAUCGCGCUGUCUUCCCGAUUUAUUUAGAUGAUGUAUAUGAAAAUGCUGUCGAUGCAGCCAGAUUACAUUACAUGUUCAGUGCUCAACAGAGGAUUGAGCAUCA | 1.2
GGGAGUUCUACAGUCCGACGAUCGAGAUGUUAGAAGAUGGCUCUGAGAGAUUCCUCUGCGAAUCUGUUUUUAGCUAUCAAGUGGCAUCCACGCUUAAACAGGUGAAACAUGAUCAGCAAGUUGCUCGGAUGGAAAAACUAGCUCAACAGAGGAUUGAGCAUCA | 0.162

Sample 4 — method: RNA Bind-n-Seq; molecule type: RNA; matrix: in vitro; concentration: 20 nM; setting: 6-mer, flanks averaged, single round; added: 150 mM LiCl; baseline: input library; reading: higher = stronger binding
Target: TAR DNA-binding protein 43, full length, His tag (TARDBP, Homo sapiens, UniProt Q13148, residues 1-414)
Strand | 6-mer enrichment (R)
UCGCAU | 0.874
UACCUU | 0.962
ACUGGC | 0.893
CAGGUU | 0.927
UACAAC | 0.832
CGAGAU | 0.904
GGGGAC | 1.2
CGCCCC | 1.22
ACGUGA | 0.89
CAUCUA | 0.828
CGGUGG | 1.14
CGUACG | 0.882
UAUUAA | 0.985
GGCGGC | 1.12
AAGCCG | 0.866
GCCGUU | 0.948
GGAAGU | 1.08
UACUCU | 0.875
CUGGGG | 1.15
ACACCC | 1.08
UAGCUC | 0.863
ACGAAA | 0.819
GCAGUA | 0.955

Sample 5 — method: RNA Bind-n-Seq; molecule type: RNA; matrix: in vitro; concentration: 1 µM; setting: whole 134-nt RNA, ends assumed; added: 150 mM KCl; baseline: input library; reading: higher = stronger binding
Target: Ras GTPase-activating protein-binding protein 1, C-terminal RGG region (G3BP1, Homo sapiens, UniProt Q13283)
UniProt Q13283, sequence (whole entry, looked up): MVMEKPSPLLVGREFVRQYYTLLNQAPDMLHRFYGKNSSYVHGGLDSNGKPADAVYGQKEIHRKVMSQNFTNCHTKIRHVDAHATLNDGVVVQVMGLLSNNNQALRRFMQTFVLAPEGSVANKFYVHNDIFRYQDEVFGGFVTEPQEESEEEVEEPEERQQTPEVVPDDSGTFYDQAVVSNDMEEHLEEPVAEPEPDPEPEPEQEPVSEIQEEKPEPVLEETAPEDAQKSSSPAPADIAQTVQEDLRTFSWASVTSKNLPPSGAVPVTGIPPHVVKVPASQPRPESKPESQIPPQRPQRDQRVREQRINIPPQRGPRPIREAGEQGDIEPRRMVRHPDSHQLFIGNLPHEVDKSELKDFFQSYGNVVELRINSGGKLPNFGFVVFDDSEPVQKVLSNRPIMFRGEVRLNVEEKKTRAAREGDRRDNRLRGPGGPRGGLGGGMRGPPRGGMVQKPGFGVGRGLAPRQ
Strand | log2 enrichment
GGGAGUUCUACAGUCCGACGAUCCACAGACCACACGCACCCACACAGACACAGAGGGAAGGGGUUGGGAUGGGGACAGGGUGCACAGCAGGGCGGGGUAGGACCCCAGCCCCUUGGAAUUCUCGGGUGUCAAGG | -0.403
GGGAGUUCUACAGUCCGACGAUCUGAGUAGAUCUAGAAAUGACAGUAUGACUUUGUUUCUAACAGCUCCAAAAUGGAUCAAAAUGUUUGUUUUGGAUGAAGCAGAUGAAAUGUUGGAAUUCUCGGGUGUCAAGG | -2.83
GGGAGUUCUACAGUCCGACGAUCCUGUGCUACACAUCGUAUGUACCGAAUCGGGAAAAAAGGGGAAAAAAGGGGAAAAAAGGGGAAAGUAUUAUGUUACGCCGUUCGGAUCUGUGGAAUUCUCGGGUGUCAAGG | -0.743
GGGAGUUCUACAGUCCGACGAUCUCCUCAAGUCCUGUGCUACACAUCGUAUGUACCGAAUCGGGGCGGCGGCGGGAAAGUAUUAUGUUACGCCGUUCGGAUCUGCACUUCCAGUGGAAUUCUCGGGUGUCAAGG | -0.595
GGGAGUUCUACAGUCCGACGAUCACCAUGCAGGUGGGCAUCUUUGGGAAGUGGGGCAAGGGGGGGAUAGGGAGGGGGGUAACACUUUGGGAACAGGUGGUCCCAGGAAAUUUCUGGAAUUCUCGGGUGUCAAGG | -0.791
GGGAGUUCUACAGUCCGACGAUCACCAUGCAGGUGGGCAUCUUUGGGAAGUGGGGCAAGGGGGGGAUAGGGAGGAAAGUAACACUUUGGGAACAGGUGGUCCCAGGUCGUUUCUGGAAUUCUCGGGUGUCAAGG | -1.12
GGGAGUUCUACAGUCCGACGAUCCACAGACAACACGCACCCACACAGACACAGAGAAAAGGGGUUGGGAUGGGGACAGGGUGCACAGCAGGGCGGGGUAGGACCCCAGCCCCUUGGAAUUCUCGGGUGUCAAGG | -0.423
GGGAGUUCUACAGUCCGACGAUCAGUUACUCAGUUCAUUUUGGAUAACUACAUUGAAAGAGGAAAAGGAUCUGCUUGCAGAAUAGUUUGUACUCAGCCAAGAAGAAUUAGUGCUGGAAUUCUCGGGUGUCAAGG | -2.5
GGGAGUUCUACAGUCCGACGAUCAGUCCUGUGCUACACAUCGUAUGUACCGAAUCGGGGUUUUGGGGUUUUGGGUUUUGGGAAAGUAUUAUGUUACGCCGUUCGGAUCUGCACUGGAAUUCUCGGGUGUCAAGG | 0.815
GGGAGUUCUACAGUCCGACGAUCCCUCAAGUCCUGUGCUACACAUCGUAUGUACCGAAUCGGAGGAGGAAAAAGGAAAGUAUUAUGUUACGCCGUUCGGAUCUGCACUUCCAGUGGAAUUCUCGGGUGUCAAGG | -0.903

For quick reference, copied from above (sample 2):
Strand | E-score
CCATCTCG | -0.17
AGCAAGCA | -0.152
CCGTTGCA | 0.153
AAATGGAT | -0.237
CGTGATCC | -0.00732
CATCAGCA | -0.165
CTGAAACC | 0.0815
GGGCCAAC | 0.0522
GGGAGCGA | -0.126
CAAATGCG | 0.131
AGTAGGCC | -0.107
GCGTAGGA | 0.204
CCTAGATC | -0.0651
AACGTCAA | -0.0615
ATGCCAAT | -0.274
